Measurements gathered from unrelated publications.
Lines come from different studies, so protocols differ. “And” joins repeats or separate records; there may be more than shown. ± marks the error that the study gave.

Structure (SMILES) | cell line | effect on | method | concentration | time | reference | viability
COc1cc2c(cc1O)[C@]1(O)C(=O)c3c(O)cc4c(c3O[C@@H]1CO2)C=CC(C)(C)O4 | A549 | cell growth or viability | MTT | 6.25 µg/mL | – | – | 117%
CN1CCN(C)CCN(Cc2c(O)ccc3nc(-c4ccc(N(C)C)nc4)sc23)CC1 | Neuro2A | – | Alamar Blue | up to 10 µM | 40 h | 1% DMSO vehicle | > 80%
CC[C@H](C)[C@H](NC(=O)[C@H](C)NC(=O)CNC(=O)[C@H](Cc1ccccc1)NC(=O)[C@H](CC(N)=O)NC(=O)[C@H](CC(N)=O)NC(=O)[C@H](CO)NC(=O)[C@H](CO)NC(=O)[C@H](Cc1c[nH]cn1)NC(=O)[C@@H](NC(=O)[C@H](CC(C)C)NC(=O)[C@H](Cc1ccccc1)NC(=O)[C@H](CC(N)=O)NC(=O)[C@H](C)NC(=O)[C@H](CC(C)C)NC(=O)[C@H](CCCNC(=N)N)NC(=O)[C@H](CCC(N)=O)NC(=O)[C@@H](NC(=O)[C@H](C)NC(=O)[C@@H]1CSSC[C@H](NC(=O)[C@@H](N)CCCCN)C(=O)N[C@@H](CC(N)=O)C(=O)N[C@@H]([C@@H](C)O)C(=O)N[C@@H](C)C(=O)N[C@@H]([C@@H](C)O)C(=O)N1)[C@@H](C)O)C(C)C)C(=O)N[C@@H](CC(C)C)C(=O)N[C@@H](CO)C(=O)N[C@@H](CO)C(=O)N[C@H](C(=O)N[C@@H](CC(N)=O)C(=O)N[C@H](C(=O)NCC(=O)N[C@@H](CO)C(=O)N[C@@H](CC(N)=O)C(=O)N[C@H](C(=O)N[C@@H](Cc1ccc(O)cc1)C(N)=O)[C@@H](C)O)C(C)C)[C@@H](C)O | INS-1 | – | AlamarBlue | 42 µM | 24 h | medium alone | 14 ± 9%
CC(C)=CCc1cc(-c2coc3cc(O)c(CC=C(C)C)c(O)c3c2=O)ccc1O | A549 | cell growth or viability | MTT | 12.5 µg/mL | – | – | 117%
CC(C)C[C@H](NC(=O)[C@H](CCCNC(=N)N)NC(=O)[C@H](CCC(N)=O)NC(=O)[C@@H](NC(=O)[C@H](C)NC(=O)[C@@H]1CSSC[C@H](NC(=O)[C@@H](N)CCCCN)C(=O)N[C@@H](CC(N)=O)C(=O)N[C@@H]([C@@H](C)O)C(=O)N[C@@H](C)C(=O)N[C@@H]([C@@H](C)O)C(=O)N1)[C@@H](C)O)C(=O)N[C@@H](C)C(=O)N[C@@H](CC(N)=O)C(=O)N[C@@H](Cc1ccccc1)C(=O)N[C@@H](CC(C)C)C(=O)N[C@H](C(=O)N[C@@H](CCCNC(=N)N)C(=O)N[C@@H](CO)C(=O)N[C@@H](CO)C(=O)N[C@@H](CC(N)=O)C(=O)N[C@@H](CC(N)=O)C(=O)N[C@@H](Cc1ccccc1)C(=O)N1CCC[C@H]1C(=O)N[C@@H](C)C(=O)N1CCC[C@H]1C(=O)N[C@@H](CC(C)C)C(=O)N[C@@H](CO)C(=O)N[C@@H](CO)C(=O)N[C@H](C(=O)N[C@@H](CC(N)=O)C(=O)N[C@H](C(=O)NCC(=O)N[C@@H](CO)C(=O)N[C@@H](CC(N)=O)C(=O)N[C@H](C(=O)N[C@@H](Cc1ccc(O)cc1)C(N)=O)[C@@H](C)O)C(C)C)[C@@H](C)O)C(C)C | INS-1 | – | AlamarBlue | 42 µM | 24 and 48 h | – | not toxic
O=C(N[C@@H](Cn1cncn1)c1ccc(Cl)cc1Cl)c1ccc(-c2nnc(-c3ccccc3)o2)cc1 | NIH/3T3 | – | BrdU incorporation | 50 µM | 24 h | DMSO | 98.1% and 98%
Cc1nc(C)c(C=[N+]([O-])C(C)(C)C)nc1C | Sprague-Dawley rat primary midbrain neurons | – | – | 30 µM | 24 h | untreated | 97.8 ± 2.34%
COc1ccc([C@@H]2CC(=O)c3c(O)cc(O[C@@H]4O[C@H](CO[C@@H]5O[C@@H](C)[C@H](O)[C@@H](O)[C@H]5O)[C@@H](O[C@H]5O[C@H](CO)[C@@H](O)[C@H](O)[C@H]5O)[C@H](O)[C@H]4O)cc3O2)cc1O | MRC5 | cell growth or viability | MTS | 50 µg/mL | 48 h | – | 77.1%
CC(C)=CCc1c2c(c(O)c3c(=O)c(-c4ccc(O)cc4)coc13)CC(C(C)(C)O)O2 (stereo not shown) | A549 | cell growth or viability | MTT | 25 µg/mL | – | – | 9.75%
O=C(N[C@@H](Cn1ccnc1)c1ccc(F)cc1F)c1ccc(-c2nnc(-c3ccccc3)o2)cc1 | NIH/3T3 | – | BrdU incorporation | 50 µM | 24 h | DMSO | 65.9 ± 3.1%
COc1ccc(-c2coc3c(CC=C(C)C)c(O)c(CC=C(C)C)c(O)c3c2=O)cc1O | A549 | cell growth or viability | MTT | 6.25 µg/mL | – | – | 114%
CCCCCCCCCCN1C(=O)/C(=N\NC(N)=S)c2cc(C)ccc21 | BJ | cell growth or viability | MTT | 18 µg/mL | 24 h | – | ~80%
CNc1ccc(-c2nc3ccc(O)c(CN4CCN(C)CCN(C)CC4)c3s2)cn1 | Neuro2A | – | Alamar Blue | up to 10 µM | 40 h | 1% DMSO vehicle | > 80%
